Experimental data gathered from unrelated publications.
Each numbered part is a random draw from the data of one study; scales do not carry over between parts. Several values in a cell are separate wells, animals, samples, runs or records.
UniProt P51813, sequence (whole entry, looked up): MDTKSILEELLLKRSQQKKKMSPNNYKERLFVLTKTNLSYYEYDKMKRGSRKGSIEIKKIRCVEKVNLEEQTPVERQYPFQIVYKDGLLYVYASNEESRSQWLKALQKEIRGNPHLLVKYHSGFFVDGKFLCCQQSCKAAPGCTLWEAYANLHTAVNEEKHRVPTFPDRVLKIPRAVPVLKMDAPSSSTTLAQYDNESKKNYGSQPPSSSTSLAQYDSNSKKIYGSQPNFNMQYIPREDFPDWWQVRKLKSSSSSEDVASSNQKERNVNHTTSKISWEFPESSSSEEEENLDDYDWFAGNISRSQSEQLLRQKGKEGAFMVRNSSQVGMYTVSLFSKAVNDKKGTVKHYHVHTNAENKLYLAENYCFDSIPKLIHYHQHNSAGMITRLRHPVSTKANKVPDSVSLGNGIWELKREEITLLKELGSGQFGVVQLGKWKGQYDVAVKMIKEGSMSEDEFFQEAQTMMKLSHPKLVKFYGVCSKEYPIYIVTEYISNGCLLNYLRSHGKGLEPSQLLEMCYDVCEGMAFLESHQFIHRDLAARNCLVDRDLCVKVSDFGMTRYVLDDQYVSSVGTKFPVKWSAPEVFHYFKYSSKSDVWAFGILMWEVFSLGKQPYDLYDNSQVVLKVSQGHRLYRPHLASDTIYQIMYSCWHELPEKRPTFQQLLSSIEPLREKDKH
UniProt O95819, sequence (whole entry, looked up): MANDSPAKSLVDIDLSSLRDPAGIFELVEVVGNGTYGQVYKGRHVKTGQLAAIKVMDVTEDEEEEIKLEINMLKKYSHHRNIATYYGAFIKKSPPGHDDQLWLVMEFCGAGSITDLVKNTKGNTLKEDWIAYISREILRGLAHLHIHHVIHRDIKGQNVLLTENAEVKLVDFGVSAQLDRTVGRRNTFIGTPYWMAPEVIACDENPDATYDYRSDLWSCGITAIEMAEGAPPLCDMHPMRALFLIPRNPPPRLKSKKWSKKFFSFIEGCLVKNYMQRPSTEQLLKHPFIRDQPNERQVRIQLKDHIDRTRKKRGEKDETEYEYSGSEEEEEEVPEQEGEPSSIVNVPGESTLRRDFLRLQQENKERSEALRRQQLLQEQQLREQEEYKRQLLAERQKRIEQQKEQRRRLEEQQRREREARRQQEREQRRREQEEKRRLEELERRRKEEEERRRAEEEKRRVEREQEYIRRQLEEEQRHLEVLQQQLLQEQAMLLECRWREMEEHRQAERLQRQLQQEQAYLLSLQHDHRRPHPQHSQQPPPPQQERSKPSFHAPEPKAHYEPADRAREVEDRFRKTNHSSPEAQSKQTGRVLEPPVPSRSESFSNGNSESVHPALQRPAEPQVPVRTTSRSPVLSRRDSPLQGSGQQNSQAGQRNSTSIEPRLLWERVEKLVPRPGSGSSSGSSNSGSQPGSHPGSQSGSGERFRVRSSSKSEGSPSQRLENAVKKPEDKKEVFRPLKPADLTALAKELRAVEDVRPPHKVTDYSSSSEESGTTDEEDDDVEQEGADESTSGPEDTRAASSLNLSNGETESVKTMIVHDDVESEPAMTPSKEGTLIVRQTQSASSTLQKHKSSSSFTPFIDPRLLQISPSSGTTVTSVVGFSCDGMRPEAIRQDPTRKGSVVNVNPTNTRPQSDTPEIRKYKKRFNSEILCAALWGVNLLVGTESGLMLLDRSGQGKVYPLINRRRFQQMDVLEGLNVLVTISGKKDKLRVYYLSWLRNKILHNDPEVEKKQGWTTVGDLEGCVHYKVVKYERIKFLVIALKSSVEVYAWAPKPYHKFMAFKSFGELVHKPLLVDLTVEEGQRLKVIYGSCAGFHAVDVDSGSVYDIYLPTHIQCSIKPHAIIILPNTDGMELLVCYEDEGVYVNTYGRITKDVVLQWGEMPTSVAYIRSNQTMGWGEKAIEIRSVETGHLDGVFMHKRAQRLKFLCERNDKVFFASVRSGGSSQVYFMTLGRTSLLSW

Series 1
SMILES: CC(C)(C(=O)O)[C@H](NC(=O)Cc1cccc(I)c1)c1ccc2oc(=O)[nH]c2c1
Method: Incucyte 3D growth
Tested at: 30 µM
Direction: higher = more growth
Measurement: spheroid area
cell line = NCI-H358; time = 114 h; value = 4.66e+06 a.u. and 5.55e+06 a.u. and 3.81e+06 a.u. and 5.59e+06 a.u. and 5.47e+06 a.u.
cell line = IPC-298; time = 60 h; value = 2.8e+07 a.u. and 2.43e+07 a.u. and 2.83e+07 a.u. and 2.96e+07 a.u. and 2.33e+07 a.u. and 3.08e+07 a.u.
cell line = A375; time = 468.52 h; value = 1.5e+08 a.u. and 1.78e+08 a.u. and 1.45e+08 a.u. and 1.6e+08 a.u. and 1.65e+08 a.u.
cell line = KP-4; time = 300 h; value = 1.03e+08 a.u. and 8.51e+07 a.u. and 7.39e+07 a.u. and 1.1e+08 a.u. and 5.55e+07 a.u. and 3.27e+07 a.u.
cell line = KP-4; time = 168 h; value = 2.3e+07 a.u. and 3.07e+07 a.u. and 2.52e+07 a.u. and 1.71e+07 a.u. and 2.69e+07 a.u. and 2.36e+07 a.u.
cell line = MEL-JUSO; time = 450.52 h; value = 2.66e+07 a.u. and 2.89e+07 a.u. and 8.3e+07 a.u. and 5.1e+07 a.u. and 2.86e+07 a.u. and 3.42e+07 a.u.
cell line = PC-9; time = 12 h; value = 2.55e+08 a.u. and 2.41e+08 a.u. and 2.48e+08 a.u. and 2.4e+08 a.u. and 2.37e+08 a.u.
cell line = MEL-JUSO; time = 486.52 h; value = 2.49e+07 a.u. and 4.97e+07 a.u. and 3.18e+07 a.u. and 1.86e+07 a.u. and 7.62e+07 a.u. and 2.3e+07 a.u.
cell line = A375; time = 432.52 h; value = 1.51e+08 a.u. and 1.6e+08 a.u. and 1.84e+08 a.u. and 1.74e+08 a.u. and 1.81e+08 a.u. and 1.66e+08 a.u.
cell line = A375; time = 216 h; value = 1.29e+08 a.u. and 1.27e+08 a.u. and 1.25e+08 a.u. and 1.51e+08 a.u. and 1.24e+08 a.u. and 1.1e+08 a.u.
cell line = KP-4; time = 84 h; value = 1.59e+07 a.u. and 1.46e+07 a.u. and 1.79e+07 a.u. and 1.63e+07 a.u. and 1.55e+07 a.u. and 1.43e+07 a.u.

Series 2
Target: Tyrosine-protein kinase JAK2 (JAK2, Homo sapiens, UniProt O60674)
UniProt O60674, sequence (whole entry, looked up): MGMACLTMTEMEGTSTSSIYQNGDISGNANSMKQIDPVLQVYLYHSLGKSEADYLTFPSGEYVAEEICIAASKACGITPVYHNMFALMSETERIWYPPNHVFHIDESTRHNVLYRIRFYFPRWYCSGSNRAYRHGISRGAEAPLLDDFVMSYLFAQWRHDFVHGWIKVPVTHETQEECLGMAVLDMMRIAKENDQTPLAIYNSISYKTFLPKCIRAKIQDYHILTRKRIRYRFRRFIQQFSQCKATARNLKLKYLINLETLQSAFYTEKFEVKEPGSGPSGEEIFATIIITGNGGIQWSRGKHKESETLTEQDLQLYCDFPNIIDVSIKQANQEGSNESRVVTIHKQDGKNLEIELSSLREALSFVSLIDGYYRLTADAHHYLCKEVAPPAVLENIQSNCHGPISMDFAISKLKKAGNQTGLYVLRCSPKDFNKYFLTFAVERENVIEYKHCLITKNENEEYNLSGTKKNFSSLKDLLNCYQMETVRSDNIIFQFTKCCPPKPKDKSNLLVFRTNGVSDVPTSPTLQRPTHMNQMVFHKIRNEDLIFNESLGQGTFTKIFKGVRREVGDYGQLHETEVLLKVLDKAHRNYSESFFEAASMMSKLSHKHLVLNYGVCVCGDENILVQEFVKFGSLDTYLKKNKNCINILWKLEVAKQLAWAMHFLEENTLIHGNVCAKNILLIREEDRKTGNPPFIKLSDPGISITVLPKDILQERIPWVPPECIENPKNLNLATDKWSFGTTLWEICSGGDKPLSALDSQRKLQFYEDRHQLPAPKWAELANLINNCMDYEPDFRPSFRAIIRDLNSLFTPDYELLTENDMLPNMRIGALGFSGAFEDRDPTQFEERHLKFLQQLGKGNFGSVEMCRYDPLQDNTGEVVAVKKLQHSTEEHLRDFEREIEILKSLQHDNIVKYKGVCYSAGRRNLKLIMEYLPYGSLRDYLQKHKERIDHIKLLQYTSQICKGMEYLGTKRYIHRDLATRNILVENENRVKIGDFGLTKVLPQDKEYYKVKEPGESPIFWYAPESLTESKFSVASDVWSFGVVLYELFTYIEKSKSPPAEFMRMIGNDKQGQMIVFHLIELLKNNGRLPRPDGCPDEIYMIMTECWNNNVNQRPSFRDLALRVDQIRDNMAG
Observed: enzyme activity
Action: inhibitor
Tested at: 0.5 µM
Relative to: control
Measurement: remaining activity
Compound = COc1ccc(COc2ccc(Cc3cnc(N)nc3N)cc2OC)cc1; value = 89.2%
Compound = CN1CCN(c2ccc3nc(-c4c(N)c5c(F)cccc5[nH]c4=O)[nH]c3c2)CC1; value = 92%
Compound = Cc1cc(Nc2cc(N3CCN(C)CC3)nc(Sc3ccc(NC(=O)C4CC4)cc3)n2)[nH]n1; value = 75.5%
Compound = O=C1NC(=O)c2c1c1c3ccccc3[nH]c1n1cncc21; value = 117%
Compound = N#Cc1cnc2cnc(NCc3cccnc3)cc2c1Nc1ccc(F)c(Cl)c1; value = 99%
Compound = c1ccc2c(-c3ccncc3)c[nH]c2c1; value = 93.8%
Compound = CCCNC(=O)Nc1ccc(Oc2ncnc3cc(OC)c(OC)cc23)cc1Cl; value = 96.9%
Compound = O=C1Cc2c([nH]c3ccc(Br)cc23)-c2ccccc2N1; value = 102%
Compound = O=C1Nc2ccccc2/C1=C\c1c(Cl)[nH]c2ccccc12; value = 103%
Compound = CN(C)S(=O)(=O)c1ccc2c(c1)/C(=C/c1cc3c([nH]1)CCCC3)C(=O)N2; value = 46.1%
Compound = O=C(c1cc2cc(O)ccc2[nH]1)c1cc2cc(O)ccc2[nH]1; value = 95.6%
Compound = Oc1cccc(-c2nc(N3CCOCC3)c3oc4ncccc4c3n2)c1; value = 92.6%
Compound = Cc1ccc(S(=O)(=O)/C=C/C#N)cc1; value = 99.5%
Compound = CCCCc1c(-c2ccc(OC)cc2)[nH]c2nccnc12; value = 77.9%
Compound = O=Nc1c(-c2c(O)[nH]c3cc(Br)ccc23)[nH]c2ccccc12; value = 93.8%
Compound = O=C1NC(=O)c2c1c1c3ccccc3[nH]c1c1[nH]c3cc(Br)ccc3c21; value = 95.8%
Compound = O=C1Nc2ccc(Br)cc2/C1=C/c1cc2c([nH]1)CCCC2; value = 95.2%
Compound = c1ccc(-c2n[nH]c3c2oc2ccccc23)cc1; value = 89.8%
Compound = COc1ccc2c(c1)c(C1=C(c3c[nH]c4ccccc34)C(=O)NC1=O)cn2CCCN(C)C; value = 97.5%
Compound = O=c1cc(N2CCOCC2)oc2c(-c3ccccc3)cccc12; value = 95.1%
Compound = COc1cccc(-c2cc(=O)c3ccccc3o2)c1N; value = 104%

Series 3
Compound: O=C(O)c1ccccc1Nc1ccccc1
Tested at: 10 µM
Measurement: normalized current
ANO1 del476-501: Anoctamin-1 (ANO1, Homo sapiens, UniProt Q5XXA6, del476-501)
UniProt Q5XXA6, sequence (whole entry, unmodified, looked up): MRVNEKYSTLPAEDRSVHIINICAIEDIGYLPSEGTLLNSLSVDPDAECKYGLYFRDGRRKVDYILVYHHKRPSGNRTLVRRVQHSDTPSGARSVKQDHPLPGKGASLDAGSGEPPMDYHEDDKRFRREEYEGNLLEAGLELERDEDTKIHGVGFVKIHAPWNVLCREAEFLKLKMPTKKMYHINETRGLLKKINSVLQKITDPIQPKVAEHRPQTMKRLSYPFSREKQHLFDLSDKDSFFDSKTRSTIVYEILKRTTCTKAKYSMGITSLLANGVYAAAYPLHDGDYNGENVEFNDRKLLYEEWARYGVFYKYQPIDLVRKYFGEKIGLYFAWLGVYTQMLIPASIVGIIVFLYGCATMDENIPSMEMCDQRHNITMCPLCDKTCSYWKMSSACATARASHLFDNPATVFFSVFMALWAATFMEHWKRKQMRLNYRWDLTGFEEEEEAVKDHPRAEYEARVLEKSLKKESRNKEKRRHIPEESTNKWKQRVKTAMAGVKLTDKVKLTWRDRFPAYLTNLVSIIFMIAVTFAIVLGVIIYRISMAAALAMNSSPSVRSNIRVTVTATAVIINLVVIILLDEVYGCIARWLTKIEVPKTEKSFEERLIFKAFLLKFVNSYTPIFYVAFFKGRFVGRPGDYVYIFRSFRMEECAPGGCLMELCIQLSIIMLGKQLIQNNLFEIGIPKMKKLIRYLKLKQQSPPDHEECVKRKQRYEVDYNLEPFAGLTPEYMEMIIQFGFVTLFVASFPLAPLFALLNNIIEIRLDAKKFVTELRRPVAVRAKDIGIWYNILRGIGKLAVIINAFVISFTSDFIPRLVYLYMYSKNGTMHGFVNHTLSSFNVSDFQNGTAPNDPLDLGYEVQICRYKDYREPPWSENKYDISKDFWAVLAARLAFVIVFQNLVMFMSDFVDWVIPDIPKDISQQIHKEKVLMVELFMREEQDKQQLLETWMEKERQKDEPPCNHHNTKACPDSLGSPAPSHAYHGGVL
ANO1 del476-501/F628A/F803A: Anoctamin-1 (ANO1, Homo sapiens, UniProt Q5XXA6, del476-501/F628A/F803A)
ANO1 del476-501/R541A: Anoctamin-1 (ANO1, Homo sapiens, UniProt Q5XXA6, del476-501/R541A)
target = ANO1 del476-501; assay = chloride current, inhibitor; test system = human; setting = wild type; value = 0.763
target = ANO1 del476-501/F628A/F803A; assay = chloride current, inhibitor, whole-cell patch clamp; setting = F602A/F777A non-pore mutant; value = 0.792 and 0.882 and 0.736 and 0.745 and 0.83 and 0.72
target = ANO1 del476-501; assay = ion current, patch clamp; how to read = relative to: before drug; value = 0.696 and 0.813 and 0.849 and 0.801 and 0.785 and 0.683 and 0.795 and 0.682
target = ANO1 del476-501/R541A; assay = chloride current, inhibitor, whole-cell patch clamp; setting = R515A pore mutant; value = 1.05 and 0.966 and 1.01 and 1.02 and 0.992
target = ANO1 del476-501/R541A; assay = chloride current, inhibitor; test system = human; setting = pore mutant R515A; value = 1.01
target = ANO1 del476-501/F628A/F803A; assay = chloride current, inhibitor; test system = human; setting = mutant, non-pore, F602A/F777A; value = 0.784

Series 4
Structure (SMILES): CNCc1ccccc1-c1csc([C@H](C)Nc2nc(C)nc3cc(OC)c(OC)cc23)c1
Observed: cell-free assay
Method: competition with immobilised ligand
Tested at: 1 µM
Measurement: remaining binding
target = TNK1 (Homo sapiens, UniProt Q13470); value = 85%
target = Tyrosine-protein kinase ABL1, phosphorylated (ABL1, Homo sapiens, UniProt P00519); value = 100%
target = FLT3 (Homo sapiens, UniProt P36888, F691L/ITD); value = 79%
target = DDR1 (Homo sapiens, UniProt Q08345); value = 100%
target = Receptor-type tyrosine-protein kinase FLT3, autoinhibited (FLT3, Homo sapiens, UniProt P36888); value = 93%
target = NEK7 (Homo sapiens, UniProt Q8TDX7); value = 100%
target = GAK (Homo sapiens, UniProt O14976); value = 90%
target = MAP4K4 (Homo sapiens, UniProt O95819); value = 97%
target = Cyclin-dependent kinase 4, with cyclin D1 (CDK4, Homo sapiens, UniProt P11802); value = 77%
target = LRRK2 (Homo sapiens, UniProt Q5S007); value = 100%
target = BMX (Homo sapiens, UniProt P51813); value = 58%
target = SRC (Homo sapiens, UniProt P12931); value = 100%
target = LTK (Homo sapiens, UniProt P29376); value = 98%
target = Ribosomal protein S6 kinase alpha-4, N-terminal kinase domain (RPS6KA4, Homo sapiens, UniProt O75676); value = 100%
target = CIT (Homo sapiens, UniProt O14578); value = 100%

For quick reference, copied from above (series 1):
cell line = A375; time = 468.52 h; value = 1.5e+08 a.u. and 1.78e+08 a.u. and 1.45e+08 a.u. and 1.6e+08 a.u. and 1.65e+08 a.u.
cell line = IPC-298; time = 60 h; value = 2.8e+07 a.u. and 2.43e+07 a.u. and 2.83e+07 a.u. and 2.96e+07 a.u. and 2.33e+07 a.u. and 3.08e+07 a.u.
cell line = PC-9; time = 12 h; value = 2.55e+08 a.u. and 2.41e+08 a.u. and 2.48e+08 a.u. and 2.4e+08 a.u. and 2.37e+08 a.u.
cell line = MEL-JUSO; time = 450.52 h; value = 2.66e+07 a.u. and 2.89e+07 a.u. and 8.3e+07 a.u. and 5.1e+07 a.u. and 2.86e+07 a.u. and 3.42e+07 a.u.
